Experimental data collected from several papers.
A part holds a random share of what one study measured. Changes are numbered by the printed parent chain.

Sample 1
Target: Interferon regulatory factor 3, full length, phosphomimetic (IRF3, Homo sapiens, UniProt Q14653, residues 1-427, S386D/S396D/S398D/S402D/T404D/S405D)
Method: protein-binding microarray
Form: double-stranded DNA, one strand shown
Sample: in vitro
Concentration: 2540 nM top
Setting: 60-bp whole probe
Added: salmon DNA 0.4 mg/ml
Baseline: random background probes
Reading: higher = stronger binding
Measurement: fitted relative affinity
Shared flanks, not repeated: GCCTAGCAC … GTCTTGATTCGCTTGACGCTGCTG
Residues (chain): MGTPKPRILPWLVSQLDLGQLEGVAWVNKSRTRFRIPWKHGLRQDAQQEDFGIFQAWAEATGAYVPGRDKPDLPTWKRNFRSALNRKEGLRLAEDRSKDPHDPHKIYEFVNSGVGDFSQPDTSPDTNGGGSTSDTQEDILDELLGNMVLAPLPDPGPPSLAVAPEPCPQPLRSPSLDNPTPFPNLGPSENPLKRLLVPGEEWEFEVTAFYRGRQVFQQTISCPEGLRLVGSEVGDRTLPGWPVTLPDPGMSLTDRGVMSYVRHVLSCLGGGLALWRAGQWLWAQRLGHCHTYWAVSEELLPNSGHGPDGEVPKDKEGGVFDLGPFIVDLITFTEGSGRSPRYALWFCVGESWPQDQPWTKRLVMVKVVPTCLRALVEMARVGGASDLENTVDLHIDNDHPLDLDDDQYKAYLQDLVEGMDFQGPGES
GACGGTATCGACTTTCCGGACGTGCTA: 1.73 z-score
TTAGACATCAGACTGGATTAGTGCTAG: -0.406 z-score
TTAGGTTCCGGTTGCGGTTAGTGCTAG: 3.19 z-score
TCAGCTCTCCGGGGTCTGACTGTGCTA: -0.347 z-score
ATGAAGTTCTTTTTTTCAAGGTGCTAG: 0.974 z-score
TTAGGACGGGGACTGGGTTAGTGCTAG: -0.868 z-score
TTAGGGCTGCTTCTCCTTTAGTGCTAG: -0.48 z-score
GACGGTATCGACTTTCGGTACGTGCTA: 2.12 z-score
GACGGTCTCCTATTGCTGACGTGCTAG: 1.69 z-score
TTAGATATCAGTTTCGACTAGTGCTAG: 3.2 z-score
ACTCGTGACCCTCTCAAAGGGTGCTAG: 0.296 z-score
TGTTATTAAAATTTAATGGGGTGCTAG: 0.137 z-score
TAAATTCTGAAAATGGAAACGTGCTAG: 0.856 z-score
GACGGTATCGGTTTCGCGACGTGCTAG: 6.2 z-score
TTAGGACTGCTACGGCTTTAGTGCTAG: -0.85 z-score
ATGCCCCCCAAGAGGGGCGGGTGCTAG: -0.144 z-score
TTCGGACTGGGTATCGGTTAGTGCTAG: 0.438 z-score
TTAGGTTTCGGACTGGTTTAGTGCTAG: 4.45 z-score
TCAGATTTCAGTATCGATTAGTGCTAG: 2.97 z-score

Sample 2
Target: Histone acetyltransferase KAT6A, winged helix 2, GST fusion (KAT6A, Homo sapiens, UniProt Q92794, residues 85-181)
Method: protein binding microarray
Form: double-stranded DNA, one strand shown
Sample: in vitro
Concentration: not given
Setting: 8-mer, flanks averaged, mean of 2 arrays, mostly near background
Baseline: not given
Reading: higher = stronger binding
Measurement: E-score
Residues (chain): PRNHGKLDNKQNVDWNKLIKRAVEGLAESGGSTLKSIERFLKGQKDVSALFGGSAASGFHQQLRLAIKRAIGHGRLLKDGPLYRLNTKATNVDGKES
ATGCATGG: 0.00587
CTCTCAAA: 0.107
AAAGCCAT: 0.0369
ACAGCCAG: 0.0459
CTTCTGTC: 0.00637
AGATGGCA: 0.0508
ACAAGACA: 0.00348
CATTTGCG: 0.0598
CTGCGCAA: 0.0544
GTCACCTA: -0.139
GAAGTAGA: 0.015
AGAGATGA: -0.0371
TACAGCGA: -0.17
CTAGAGAA: -0.0726
GATAGATC: -0.0874
GCTGCAAA: 0.155
AAGGACTT: -0.0504

Sample 3
Target: ABI1, truncated, D143A, DHFR fusion (Arabidopsis thaliana)
Method: DHFR PCA, deep sequencing
Sample: yeast
Setting: methotrexate growth selection, single substitutions
Added: (+)-ABA 710 µM
Baseline: wild-type fitted maximum
Reading: higher = stronger binding
Measurement: relative binding score
Starting sequence: PYL1, truncated, DHFR fusion (Arabidopsis thaliana); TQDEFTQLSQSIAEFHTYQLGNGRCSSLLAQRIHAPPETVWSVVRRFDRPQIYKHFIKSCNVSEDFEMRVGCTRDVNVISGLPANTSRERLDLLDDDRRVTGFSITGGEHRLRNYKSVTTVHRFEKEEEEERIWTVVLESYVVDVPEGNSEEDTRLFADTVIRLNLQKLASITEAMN
F66Y: 102%
P37T: 99.2%
R45W: 14.1%
R49K: 99.9%
H110F: 3.48%
K168D: 77.2%
H34K: 107%
I79G: 88.4%
G108W: 12.1%
I172H: 97.7%
K54Q: 13.2%
V76T: 85.1%
D97G: 110%
E129Q: 111%
H34N: 98.6%
H55C: 102%

Sample 4
Target: Centromere-binding protein 1, full length, N-terminal tag (CBF1, Saccharomyces cerevisiae, UniProt P17106, residues 1-351)
UniProt P17106, sequence (whole entry, looked up): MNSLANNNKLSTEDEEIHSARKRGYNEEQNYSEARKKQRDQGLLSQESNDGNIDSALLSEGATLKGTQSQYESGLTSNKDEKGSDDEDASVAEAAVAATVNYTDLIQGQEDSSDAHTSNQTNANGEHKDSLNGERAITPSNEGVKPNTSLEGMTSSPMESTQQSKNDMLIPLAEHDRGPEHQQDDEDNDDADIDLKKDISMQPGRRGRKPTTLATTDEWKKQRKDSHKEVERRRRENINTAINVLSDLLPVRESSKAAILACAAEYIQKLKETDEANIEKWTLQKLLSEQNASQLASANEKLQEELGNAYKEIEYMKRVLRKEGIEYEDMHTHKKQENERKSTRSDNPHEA
Method: protein-binding microarray
Form: double-stranded DNA, one strand shown
Sample: in vitro
Concentration: 0.8 µM
Setting: whole 60-bp probe, no competitor
Reading: higher = stronger binding
Measurement: fluorescence intensity
Shared flanks, not repeated: … GTCTTGATTCGCTTGACGCTGCTG
GAAATACAATATGCGCTCGTGCTTCTTTAATGTTAG: 795 a.u.
GAATGTGCGAGGGCCCACGTGGCTTAATACAACTAG: 3680 a.u.
CCTAACTACTATACACGTGCCACATAGCTTCGTACA: 7000 a.u.
GAACAATGGATGATTGCTGATGTACGCAATAGTTAG: 548 a.u.
CTATCAGATGTGGTGATCATGAGAGCGAATTATTTC: 721 a.u.
CTATGTCGTGTCTAGCACGTGACGTAGAACTGTTTC: 15200 a.u.
CTATAAAAAGAGTGGCATGTGAACTGCCTACCGTTC: 594 a.u.
CTAAATGCCGCAGATCACGTGGTAAAGAAAAGATTC: 17900 a.u.
CTAGAGAAGGACAAACATCAGGGACCCATACTTTTC: 517 a.u.
GAAGGATATCCGTCACCCGTGATTCCGTCGGAGTAG: 977 a.u.
TGTACGAAGCTATGTCACGAGAGTATAGTAGTTAGG: 1290 a.u.
CTATGGTTTTGATGGTAGGTGACCTCACTTTTCTTC: 520 a.u.
GAAAGGTGAGTTCGTCATCAGTCATCTGACGTATAG: 1870 a.u.
GAAAAACGGGCCTCCCACGTGACGTAAAGTAGGTAG: 12700 a.u.
GAAGCTTTACAGTGACACCAAACATAAGGAGGGTAG: 533 a.u.
GAAAAACATCTGCAGCACGTGCTTGTTATGCTTTAG: 12900 a.u.
GAAAGATATTACAGACGTGAGGTATCTCTTCCTTAG: 528 a.u.
CTAAAGGACGAACCCTAGGTGACCGCATTAGACTTC: 496 a.u.
GAAGTACTGCTGTATCTGATGCCGTGAACGAGATAG: 605 a.u.

Sample 5
Target: CCNF, cyclin fold, Cln2 fusion (human)
Method: yeast growth competition, sequencing
Sample: yeast
Setting: strong parent motif
Baseline: not given
Reading: higher = stronger binding
Measurement: normalised enrichment score
Starting sequence: AKAP12 docking peptide (human); GSPLKKLFTSTGL
GSPLKKLFTSTGA [L13A]: 1.54
GSPLRKLFTSTGL [K5R]: 0.837
GSPLKKAFTSTGL [L7A]: -0.601
GSPLKALFTSTGL [K6A]: 0.28
GSPLKKLATSTGL [F8A]: 0.0878
GSPAKKLFTSTGL [L4A]: 0.474
GSPLKKLFTATGL [S10A]: 1.66
GSALKKLFTSTGL [P3A]: 2.49

Some of these lines once more (sample 3):
K54Q: 13.2%
H34N: 98.6%
G108W: 12.1%
H110F: 3.48%
I172H: 97.7%
R45W: 14.1%
K168D: 77.2%
I79G: 88.4%
